Experimental data gathered from unrelated publications.
Protocols differ between the studies behind these lines. ± gives the spread as reported.
gpmI: 2,3-bisphosphoglycerate-independent phosphoglycerate mutase (gpmI, Mycoplasma pneumoniae, UniProt P75167)
UniProt P75167, sequence (whole entry, looked up): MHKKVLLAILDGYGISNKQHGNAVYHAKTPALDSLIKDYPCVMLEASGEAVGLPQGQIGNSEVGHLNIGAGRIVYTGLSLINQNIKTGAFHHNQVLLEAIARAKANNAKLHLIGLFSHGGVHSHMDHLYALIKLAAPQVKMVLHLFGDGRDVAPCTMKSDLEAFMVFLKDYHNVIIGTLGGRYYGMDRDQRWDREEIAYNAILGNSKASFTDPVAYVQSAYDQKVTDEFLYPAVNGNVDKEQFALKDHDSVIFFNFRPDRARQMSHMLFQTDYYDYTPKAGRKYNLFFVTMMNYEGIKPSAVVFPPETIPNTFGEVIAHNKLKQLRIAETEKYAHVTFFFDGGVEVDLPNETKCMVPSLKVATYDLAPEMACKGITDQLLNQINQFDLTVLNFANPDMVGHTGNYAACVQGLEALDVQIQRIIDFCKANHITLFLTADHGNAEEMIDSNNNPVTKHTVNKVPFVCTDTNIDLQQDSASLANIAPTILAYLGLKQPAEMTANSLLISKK
4'-phosphopantetheinyl transferase PptT: 4'-phosphopantetheinyl transferase PptT (Mycobacterium tuberculosis, UniProt O33336)
UniProt O33336, sequence (whole entry, looked up): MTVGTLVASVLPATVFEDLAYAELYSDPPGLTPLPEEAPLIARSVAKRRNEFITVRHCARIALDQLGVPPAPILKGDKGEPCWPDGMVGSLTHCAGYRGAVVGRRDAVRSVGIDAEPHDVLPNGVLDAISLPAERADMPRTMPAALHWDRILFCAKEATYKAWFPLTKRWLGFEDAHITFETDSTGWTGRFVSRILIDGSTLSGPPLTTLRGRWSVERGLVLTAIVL
2,3-bisphosphoglycerate-independent phosphoglycerate mutase: 2,3-bisphosphoglycerate-independent phosphoglycerate mutase (Wuchereria bancrofti, UniProt B1P0R4)
UniProt P21554, sequence (whole entry, unmodified, looked up): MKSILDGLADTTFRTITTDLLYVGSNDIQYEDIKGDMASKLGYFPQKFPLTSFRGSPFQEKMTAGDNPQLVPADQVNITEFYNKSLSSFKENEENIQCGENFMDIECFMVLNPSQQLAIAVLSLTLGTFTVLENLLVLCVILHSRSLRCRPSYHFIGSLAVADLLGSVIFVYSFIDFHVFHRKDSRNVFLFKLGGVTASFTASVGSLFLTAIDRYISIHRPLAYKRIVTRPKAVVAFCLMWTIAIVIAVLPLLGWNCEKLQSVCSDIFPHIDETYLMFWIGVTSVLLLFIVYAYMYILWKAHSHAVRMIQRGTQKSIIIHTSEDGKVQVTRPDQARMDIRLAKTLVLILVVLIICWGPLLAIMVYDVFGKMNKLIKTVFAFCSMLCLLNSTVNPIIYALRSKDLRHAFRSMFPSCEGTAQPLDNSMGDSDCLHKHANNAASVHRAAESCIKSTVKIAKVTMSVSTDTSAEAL
UniProt P29323, sequence (whole entry, looked up): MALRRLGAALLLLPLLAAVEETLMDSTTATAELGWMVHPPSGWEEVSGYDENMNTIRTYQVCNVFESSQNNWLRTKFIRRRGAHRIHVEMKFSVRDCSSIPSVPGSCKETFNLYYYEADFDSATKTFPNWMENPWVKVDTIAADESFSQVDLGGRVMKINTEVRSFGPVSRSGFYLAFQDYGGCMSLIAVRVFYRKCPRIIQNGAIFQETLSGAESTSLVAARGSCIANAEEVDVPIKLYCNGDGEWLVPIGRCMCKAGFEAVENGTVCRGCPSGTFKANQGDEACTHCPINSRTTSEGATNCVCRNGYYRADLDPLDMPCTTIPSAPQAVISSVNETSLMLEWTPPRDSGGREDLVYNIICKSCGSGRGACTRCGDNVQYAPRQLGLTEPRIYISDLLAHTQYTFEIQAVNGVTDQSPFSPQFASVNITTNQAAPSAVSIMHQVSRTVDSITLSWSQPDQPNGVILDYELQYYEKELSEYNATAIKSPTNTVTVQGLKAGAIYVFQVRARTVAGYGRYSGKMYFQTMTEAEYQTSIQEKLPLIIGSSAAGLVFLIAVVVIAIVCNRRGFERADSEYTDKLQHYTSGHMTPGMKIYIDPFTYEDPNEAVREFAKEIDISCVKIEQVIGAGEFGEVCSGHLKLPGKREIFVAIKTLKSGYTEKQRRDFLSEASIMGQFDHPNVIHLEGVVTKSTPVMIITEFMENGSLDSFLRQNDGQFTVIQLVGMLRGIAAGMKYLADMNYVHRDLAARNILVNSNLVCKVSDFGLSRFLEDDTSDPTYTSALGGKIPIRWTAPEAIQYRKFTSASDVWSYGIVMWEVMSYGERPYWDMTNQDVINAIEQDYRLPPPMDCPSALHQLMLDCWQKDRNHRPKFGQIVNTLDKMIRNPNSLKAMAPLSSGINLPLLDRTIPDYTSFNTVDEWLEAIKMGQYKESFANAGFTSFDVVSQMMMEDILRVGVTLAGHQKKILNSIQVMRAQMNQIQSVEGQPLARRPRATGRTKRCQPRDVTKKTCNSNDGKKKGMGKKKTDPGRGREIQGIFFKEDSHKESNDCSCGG
UniProt P33261, sequence (whole entry, looked up): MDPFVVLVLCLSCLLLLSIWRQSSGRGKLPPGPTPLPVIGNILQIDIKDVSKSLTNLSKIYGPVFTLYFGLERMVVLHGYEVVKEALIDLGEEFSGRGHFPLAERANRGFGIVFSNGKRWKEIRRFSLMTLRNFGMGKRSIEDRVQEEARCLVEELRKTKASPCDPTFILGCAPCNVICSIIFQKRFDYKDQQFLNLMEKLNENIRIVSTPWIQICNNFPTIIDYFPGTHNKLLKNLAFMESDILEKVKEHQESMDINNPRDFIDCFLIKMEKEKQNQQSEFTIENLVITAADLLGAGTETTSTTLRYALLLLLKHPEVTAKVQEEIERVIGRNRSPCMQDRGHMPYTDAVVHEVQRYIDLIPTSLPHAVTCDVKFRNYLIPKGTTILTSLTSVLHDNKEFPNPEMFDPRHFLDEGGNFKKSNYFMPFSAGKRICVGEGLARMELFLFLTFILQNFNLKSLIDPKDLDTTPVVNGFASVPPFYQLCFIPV
UniProt P9WFK7, sequence (whole entry, looked up): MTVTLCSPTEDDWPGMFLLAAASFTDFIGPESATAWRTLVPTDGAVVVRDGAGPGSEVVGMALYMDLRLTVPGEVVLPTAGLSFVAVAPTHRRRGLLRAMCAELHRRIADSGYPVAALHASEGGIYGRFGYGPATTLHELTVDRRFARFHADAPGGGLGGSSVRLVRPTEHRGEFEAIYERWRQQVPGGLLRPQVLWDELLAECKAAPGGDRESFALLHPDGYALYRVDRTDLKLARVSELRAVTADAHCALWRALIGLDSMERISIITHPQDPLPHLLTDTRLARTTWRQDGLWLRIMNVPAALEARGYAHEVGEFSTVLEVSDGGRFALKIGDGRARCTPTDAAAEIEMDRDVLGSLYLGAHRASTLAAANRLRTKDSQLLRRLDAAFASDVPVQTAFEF
UniProt P41149, sequence (whole entry, looked up): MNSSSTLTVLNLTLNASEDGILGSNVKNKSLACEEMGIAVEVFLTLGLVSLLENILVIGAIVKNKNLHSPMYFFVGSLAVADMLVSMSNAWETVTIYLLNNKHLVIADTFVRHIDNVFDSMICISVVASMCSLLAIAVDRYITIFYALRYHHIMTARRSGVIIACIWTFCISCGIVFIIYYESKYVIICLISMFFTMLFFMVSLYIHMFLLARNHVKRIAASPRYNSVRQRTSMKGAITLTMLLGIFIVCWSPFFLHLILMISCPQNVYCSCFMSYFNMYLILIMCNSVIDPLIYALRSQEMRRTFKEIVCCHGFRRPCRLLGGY

With `CC(C)[C@@H]1NC(=O)[C@H](CCCNC(=N)N)NC(=O)[C@H](Cc2ccc(O)cc2)NC(=O)[C@H](CO)NC(=O)[C@H](Cc2ccc(O)cc2)N(C)C(=O)[C@H](CC(N)=O)NC(=O)CNC(=O)[C@H](Cc2ccc(O)cc2)N(C)C(=O)[C@H](Cc2ccccc2)N(C)C(=O)[C@H](CC(=O)O)NC(=O)[C@H](Cc2ccc(O)cc2)NC(=O)[C@H](Cc2ccccc2)N(C)C(=O)[C@H](Cc2ccc(O)cc2)N(C)C(=O)[C@H](Cc2ccc(O)cc2)NC(=O)CSC[C@@H](C(N)=O)NC(=O)[C@@H]2CCCN2C1=O` the AC50 was 0.0158 µM (gpmI; biochemical).
`CC(C)(C)C1CCc2c(sc3nc(SCC(=O)NCCN4CCCCC4)nc(N)c23)C1` (centres unmarked) has an IC50 of 10 ± 4 µM (N-acetyltransferase Eis (eis, Mycobacterium tuberculosis, UniProt P9WFK7); inhibitor).
The IC50 of `Cc1nc(=O)c2cc(CN(C)c3ccc(C(=O)NCc4nsc(=O)[nH]4)s3)ccc2[nH]1` is reported as 0.08 µM (4'-phosphopantetheinyl transferase PptT; enzyme activity, inhibitor, fluorescence polarization; enzyme 100 nM).
`COc1ccc(C[C@H]2C(=O)N(C)[C@@H](Cc3ccc(O)cc3)C(=O)N(C)[C@@H](Cc3ccccc3)C(=O)N[C@@H](CC(N)=O)C(=O)NCC(=O)N(C)[C@@H](Cc3ccc(O)cc3)C(=O)N[C@@H](CC(N)=O)C(=O)N[C@@H](Cc3c[nH]cn3)C(=O)N[C@@H](Cc3ccc(O)cc3)C(=O)N[C@@H](Cc3c[nH]c4ccccc34)C(=O)N[C@H](C(N)=O)CSCC(=O)N[C@H](Cc3ccc(O)cc3)C(=O)N[C@@H](CC(=O)O)C(=O)N[C@@H](CO)C(=O)N[C@@H](Cc3ccc(O)cc3)C(=O)N[C@@H](C)C(=O)N2C)cc1` gave an AC50 of 0.0813 µM (2,3-bisphosphoglycerate-independent phosphoglycerate mutase; biochemical).
For `CC(=O)N[C@@H](CCCNC(=N)N)C(=O)N[C@@H](CCCNC(=N)N)C(=O)N[C@@H](C(=O)N1Cc2ccccc2C[C@H]1C(N)=O)[C@H](c1ccccc1)c1c[nH]c2ccccc12`, the EC50 was 3.2 µM (Melanocortin receptor 5 (Mus musculus, UniProt P41149); cAMP, agonist, AlphaScreen).
`CCCCCc1cc(O)c2c(c1)OC(C)(C)C1CCC(C)=CC21` (single isomer, unassigned; (-)) gave an IC50 of 4.2 µM (Cytochrome P450 2C19 (CYP2C19, Homo sapiens, UniProt P33261); enzyme activity, inhibitor; human, liver microsomes; pH 7.4).
With `C[C@H](NC(=O)[C@H](CCC(N)=O)NC(=O)[C@H](C)NC(=O)[C@H](CCCCN)NC(=O)[C@H](CCC(N)=O)NC(=O)[C@H](C)NC(=O)[C@H](CCCCN)NC(=O)[C@H](CCC(N)=O)NC(=O)[C@H](C)NC(=O)[C@H](CCC(N)=O)NC(=O)[C@H](CCCCN)NC(=O)[C@H](C)NC(=O)[C@H](CCC(N)=O)NC(=O)[C@H](CCCCN)NC(=O)[C@H](C)NC(=O)[C@H](CCC(N)=O)NC(=O)[C@H](C)NC(=O)[C@H](CCCCN)NC(=O)[C@H](CCC(N)=O)NC(=O)[C@H](C)NC(=O)[C@H](CCCCN)NC(=O)[C@H](CO)NC(=O)[C@H](Cc1ccc(O)cc1)NC(=O)CNC(=O)CNC(=O)CN)C(=O)N[C@@H](CCCCN)C(=O)N[C@@H](CCC(N)=O)C(=O)N[C@@H](C)C(=O)N[C@@H](CCCCN)C(=O)N[C@@H](CCC(N)=O)C(=O)O` the kd2 was 0.0011 s⁻¹ (binding, SPR two-state model; rVλ6Wil fibrils; 300 nM).
`CN1C(=O)[C@H](CCC(=O)O)NC(=O)[C@H](Cc2ccc(O)cc2)NC(=O)[C@H](CCCNC(=N)N)NC(=O)[C@@H](Cc2ccc(O)cc2)NC(=O)CSC[C@@H](C(N)=O)NC(=O)[C@H](CCCCN)NC(=O)[C@@H]2CCCN2C(=O)[C@H](CS)NC(=O)[C@H](CCC(=O)O)NC(=O)[C@H](Cc2ccc(O)cc2)N(C)C(=O)[C@H](CCCCN)NC(=O)[C@H](Cc2ccc(O)cc2)NC(=O)[C@@H]1Cc1ccc(O)cc1` has an AC50 of 1.7 µM (2,3-bisphosphoglycerate-independent phosphoglycerate mutase; biochemical).
With `C[C@H](NC(=O)[C@H](CCC(N)=O)NC(=O)[C@H](CCCCN)NC(=O)[C@H](C)NC(=O)[C@@H]1CCCN1C(=O)[C@H](C)NC(=O)[C@H](CCCCN)NC(=O)[C@H](CCC(N)=O)NC(=O)[C@H](C)NC(=O)[C@H](CCCCN)NC(=O)[C@H](CCC(N)=O)NC(=O)[C@@H]1CCCN1C(=O)[C@H](CCC(N)=O)NC(=O)[C@H](CCCCN)NC(=O)[C@H](C)NC(=O)[C@H](CCC(N)=O)NC(=O)[C@H](CCCCN)NC(=O)[C@H](C)NC(=O)[C@@H]1CCCN1C(=O)[C@H](C)NC(=O)[C@H](CCCCN)NC(=O)[C@H](CCC(N)=O)NC(=O)[C@H](C)NC(=O)[C@H](CCCCN)NC(=O)[C@H](CO)NC(=O)[C@H](Cc1ccc(O)cc1)NC(=O)CNC(=O)CNC(=O)CN)C(=O)N[C@@H](CCCCN)C(=O)N[C@@H](CCC(N)=O)C(=O)O` the kd2 was 0.0024 s⁻¹ (binding, SPR two-state model; rVλ6Wil fibrils; 300 nM).
With `COc1ccc(C[C@H]2C(=O)N[C@@H](Cc3ccc(O)cc3)C(=O)N3CCC[C@H]3C(=O)NCC(=O)N[C@@H]([C@@H](C)O)C(=O)N[C@@H](C)C(=O)N[C@@H](CCC(N)=O)C(=O)N(C)[C@@H](Cc3ccc(O)cc3)C(=O)N[C@@H]([C@@H](C)O)C(=O)N[C@H](C(N)=O)CSCC(=O)N[C@H](Cc3ccc(O)cc3)C(=O)N[C@@H](Cc3c[nH]c4ccccc34)C(=O)N(C)[C@@H](Cc3ccc(O)cc3)C(=O)N[C@@H](CC(=O)O)C(=O)N(C)[C@@H](CO)C(=O)N(C)[C@@H](Cc3ccc(O)cc3)C(=O)N2C)cc1` the AC50 was 0.0676 µM (gpmI; biochemical).
`Cc1nc(=O)c2cc(CN(C)c3cccc(C(=O)NCCCS(C)(=N)=O)c3)ccc2[nH]1` (centres unmarked) has an IC50 of 33.9 µM (4'-phosphopantetheinyl transferase PptT; enzyme activity, inhibitor, fluorescence polarization; enzyme 100 nM).
With `N=C(N)NCCC[C@@H]1NC(=O)[C@@H](Cc2ccc(O)cc2)NC(=O)CSC[C@@H](C(=O)N2CCC[C@H]2C(=O)N[C@@H](CCCCN)C(=O)N[C@@H](CS)C(N)=O)NC(=O)[C@H](CCC(=O)O)NC(=O)[C@H](Cc2ccc(O)cc2)NC(=O)[C@H](CCCCN)NC(=O)[C@H](Cc2ccc(O)cc2)NC(=O)[C@H](Cc2ccc(O)cc2)NC(=O)[C@H](CCC(=O)O)NC(=O)[C@H](Cc2ccc(O)cc2)NC1=O` the AC50 was 19.5 µM (gpmI; biochemical).
`Cc1nc(=O)c2cc(CN(C)c3cccc(C(=O)N[C@@]4(C(=O)O)CCC[C@@H](C(=O)O)C4)c3)ccc2[nH]1` has an IC50 of 0.29 µM (4'-phosphopantetheinyl transferase PptT; enzyme activity, inhibitor, fluorescence polarization; enzyme 100 nM).
`CCCCCn1cc(C(=O)c2ccc3c(c2)CC(C)(C)C3)c2ccccc21` has an EC50 of 3.63 µM (Cannabinoid receptor 1 (CNR1, Homo sapiens, UniProt P21554); β-arrestin recruitment, agonist, BRET).
The IC50 of `Cc1nc(=O)c2cc(CN(C)c3ccc(C(=O)NCCNS(C)(=O)=O)s3)ccc2[nH]1` is reported as 1.13 µM (4'-phosphopantetheinyl transferase PptT; enzyme activity, inhibitor, fluorescence polarization; enzyme 100 nM).
The EC50 of `CCCCCn1cc(C(=O)c2cccc3ccccc23)c2ccccc21` is reported as 0.0129 µM (Cannabinoid receptor 1 (CNR1, Homo sapiens, UniProt P21554, I267L/L193I/L359V); Gαi1 engagement, agonist, BRET).
The IC50 of `Cc1nc(=O)c2cc(CN(C)c3ccc(C(=O)N[C@@H](CCC(=O)O)c4nnn[nH]4)s3)ccc2[nH]1` is reported as 0.07 µM (4'-phosphopantetheinyl transferase PptT; enzyme activity, inhibitor, fluorescence polarization; enzyme 100 nM).
The AC50 of `CN1C(=O)[C@H](Cc2ccc(O)cc2)NC(=O)CNC(=O)[C@H](Cc2ccc(O)cc2)NC(=O)[C@H](CCC(=O)O)NC(=O)[C@H](Cc2ccc(O)cc2)N(C)C(=O)[C@H](Cc2ccc(O)cc2)N(C)C(=O)[C@H](CCC(N)=O)NC(=O)[C@H](Cc2c[nH]c3ccccc23)NC(=O)[C@H](Cc2ccc(O)cc2)NC(=O)[C@@H](Cc2ccc(O)cc2)NC(=O)CSC[C@@H](C(N)=O)NC(=O)[C@H](CCCCN)NC(=O)[C@@H]1Cc1ccc(O)cc1` is reported as 14.1 µM (gpmI; biochemical).
With `Cc1nc(=O)c2cc(CN(C)c3ccc(C(=O)N[C@@H](CCc4nn[nH]n4)C(=O)O)s3)ccc2[nH]1` the IC50 was 0.18 µM (4'-phosphopantetheinyl transferase PptT; enzyme activity, inhibitor, fluorescence polarization; enzyme 100 nM).
`CNC(=O)C1CCN(c2ccccc2NC(=O)c2ccc(-c3cc(O)ccc3C)c(C)n2)CC1` gave a Ki of 0.0002 µM (Ephrin type-B receptor 2 (EPHB2, Homo sapiens, UniProt P29323); cell-free assay, TR-FRET).

For quick reference, copied from above:
The EC50 of `CCCCCn1cc(C(=O)c2cccc3ccccc23)c2ccccc21` is reported as 0.0129 µM (Cannabinoid receptor 1 (CNR1, Homo sapiens, UniProt P21554, I267L/L193I/L359V); Gαi1 engagement, agonist, BRET).
With `Cc1nc(=O)c2cc(CN(C)c3ccc(C(=O)N[C@@H](CCc4nn[nH]n4)C(=O)O)s3)ccc2[nH]1` the IC50 was 0.18 µM (4'-phosphopantetheinyl transferase PptT; enzyme activity, inhibitor, fluorescence polarization; enzyme 100 nM).
`COc1ccc(C[C@H]2C(=O)N(C)[C@@H](Cc3ccc(O)cc3)C(=O)N(C)[C@@H](Cc3ccccc3)C(=O)N[C@@H](CC(N)=O)C(=O)NCC(=O)N(C)[C@@H](Cc3ccc(O)cc3)C(=O)N[C@@H](CC(N)=O)C(=O)N[C@@H](Cc3c[nH]cn3)C(=O)N[C@@H](Cc3ccc(O)cc3)C(=O)N[C@@H](Cc3c[nH]c4ccccc34)C(=O)N[C@H](C(N)=O)CSCC(=O)N[C@H](Cc3ccc(O)cc3)C(=O)N[C@@H](CC(=O)O)C(=O)N[C@@H](CO)C(=O)N[C@@H](Cc3ccc(O)cc3)C(=O)N[C@@H](C)C(=O)N2C)cc1` gave an AC50 of 0.0813 µM (2,3-bisphosphoglycerate-independent phosphoglycerate mutase; biochemical).
